Measured values of several laboratories.
± marks the error that the study gave.

With `CC(C)C[C@H](NC(=O)[C@H](CCCCN)NC(=O)[C@H](CCC(=O)O)NC(=O)[C@H](C)NC(=O)[C@@H](NC(=O)[C@H](CCCCN)NC(=O)[C@H](CC(=O)O)NC(=O)[C@H](Cc1ccc(O)cc1)NC(=O)[C@H](Cc1ccccc1)NC(=O)[C@H](C)NC(=O)[C@H](CCCCN)NC(=O)[C@H](CC(C)C)NC(=O)[C@H](Cc1c[nH]c2ccccc12)NC(=O)[C@@H](N)CC(=O)O)C(C)C)C(=O)N[C@@H](CCCCN)C(=O)N[C@@H](CCC(=O)O)C(=O)N[C@@H](C)C(=O)N[C@@H](Cc1ccccc1)C(=O)N1CCC[C@H]1C(=O)N[C@@H](CC(=O)O)C(=O)N[C@@H](Cc1c[nH]c2ccccc12)C(=O)N[C@@H](C)C(=O)N[C@@H](CCCCN)C(=O)N[C@@H](C)C(=O)N[C@@H](C)C(=O)N[C@@H](Cc1ccc(O)cc1)C(=O)N[C@@H](CC(=O)O)C(=O)N[C@@H](CCCCN)C(=O)N[C@@H](C)C(=O)N[C@@H](C)C(=O)N[C@@H](CCC(=O)O)C(=O)N[C@@H](CCCCN)C(=O)N[C@@H](C)C(=O)N[C@@H](CCCCN)C(=O)N[C@@H](CCC(=O)O)C(=O)N[C@@H](C)C(=O)N[C@@H](C)C(=O)O` the half-life was 4.2 h (cynomolgus monkey female, plasma; intravenous infusion, 75 mg/kg, day 1, 30 min infusion).
`CC[C@H](C)[C@@H]1NC(=O)[C@H](Cc2ccc(O)cc2)NC(=O)[C@@H](N)CSCSC[C@@H](C(=O)N2CCC[C@H]2C(=O)N[C@@H](CC(C)C)C(=O)NCC(N)=O)NC(=O)[C@H](CC(N)=O)NC(=O)[C@H](CCC(N)=O)NC1=O` gave a half-life of 768 ± 40.8 h (phosphate buffer; 0.1 mg/mL, pH 4.5, 55 °C).
With `C#CCNC(=O)c1ccc(S(=O)(=O)N[C@@H](CCCCNC(=O)c2cncc(OS(=O)(=O)F)c2)C(=O)N[C@@H](CCCNC(=N)N)C(=O)NC2CCC2)cc1` the half-life was over 17 h (chemical stability, HPLC; glutathione solution; 50 µM, pH 8).
The half-life of `CCCCCCCC/C=C\CCCCCCCCOP(O)(O)=S.N` is reported as 1.52 h (mouse, male, irradiated; sc, dose not given, 15.6 Gy partial-body, dosed 24 h after).
`CC(C)(CCCC/C=C/CCCCCC(C)(C)C(=O)O)C(=O)O` gave a half-life of 49.5 ± 29.3 h (rhesus monkey, male, hyperlipidaemic, plasma; oral, 20 mg/kg, first dose).
The half-life of `CC(COC(=O)c1ccccc1)OC(=O)C(N)C(C)C` (mixture of isomers) is reported as over 30 h (isotonic buffer; pH 1.2, 37 °C).
`COC(=O)C(=O)/C(=C\c1ccc(-c2ccccc2[N+](=O)[O-])o1)C(=O)c1ccccc1` gave a half-life of 0.827 h (chemical stability; glutathione solution; 500 µM).
`CC(COC(=O)c1ccccc1)OC(=O)C(N)Cc1ccccc1` (mixture of isomers) gave a half-life of over 2 h (90% rat intestinal perfusate; 100 µM).
For `CCCCCCCCNP(=O)(Oc1ccccc1)O[C@@H]1O[C@H](CO)[C@@H](O)[C@H](O)[C@H]1F` (stereo partly drawn), the half-life was 8.5 h (chemical stability; aqueous buffer; 100 µM, pH 6.8).

Repeated from above:
`COC(=O)C(=O)/C(=C\c1ccc(-c2ccccc2[N+](=O)[O-])o1)C(=O)c1ccccc1` gave a half-life of 0.827 h (chemical stability; glutathione solution; 500 µM).
